Results collected from several papers.
Lines come from different studies, so protocols differ. ± marks the error that the study gave.
UniProt P00747, sequence (whole entry, looked up): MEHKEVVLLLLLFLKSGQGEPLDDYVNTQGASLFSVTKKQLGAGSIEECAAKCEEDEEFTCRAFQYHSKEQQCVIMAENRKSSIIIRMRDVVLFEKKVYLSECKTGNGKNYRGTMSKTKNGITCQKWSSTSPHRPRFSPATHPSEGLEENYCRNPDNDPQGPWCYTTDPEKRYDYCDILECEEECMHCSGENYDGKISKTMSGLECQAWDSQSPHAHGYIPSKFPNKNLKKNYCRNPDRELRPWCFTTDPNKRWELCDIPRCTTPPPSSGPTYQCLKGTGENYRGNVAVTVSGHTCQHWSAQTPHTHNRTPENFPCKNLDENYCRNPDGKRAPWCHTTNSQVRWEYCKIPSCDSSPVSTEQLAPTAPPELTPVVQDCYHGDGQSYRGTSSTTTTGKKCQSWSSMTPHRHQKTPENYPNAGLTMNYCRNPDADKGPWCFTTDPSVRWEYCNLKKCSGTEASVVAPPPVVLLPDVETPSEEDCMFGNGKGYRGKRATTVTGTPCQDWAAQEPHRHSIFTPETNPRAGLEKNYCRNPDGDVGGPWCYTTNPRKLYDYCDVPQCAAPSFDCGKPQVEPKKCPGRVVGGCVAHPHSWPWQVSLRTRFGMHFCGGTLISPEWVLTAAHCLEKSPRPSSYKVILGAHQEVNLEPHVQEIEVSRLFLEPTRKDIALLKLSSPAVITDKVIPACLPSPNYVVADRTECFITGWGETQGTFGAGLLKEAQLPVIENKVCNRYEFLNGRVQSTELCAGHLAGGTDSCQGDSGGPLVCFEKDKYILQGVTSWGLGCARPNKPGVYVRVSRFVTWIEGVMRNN

CCCCn1ccn2c(-c3ccc(NCc4ccc(OC)nc4)cc3)c(C)nc2c1=O — concentration (male Sprague-Dawley rat, brain; subcutaneous, 10 mg/kg, 90 min, single dose): 502 ng/g
CNC(=S)NN=Cc1ccc(OC)cc1 — apoptotic cells (Leishmania major; annexin V/PI flow cytometry; promastigotes; IC50): 52.9%
N=C(N)c1ccc(CNC(=O)CCOCCOCCOCCOCCNC(=O)CN(CC(=O)NCCOCCOCCOCCOCCC(=O)NCc2ccc(C(=N)N)cc2)CC(=O)NCCOCCOCCOCCOCCC(=O)NCc2ccc(C(=N)N)cc2)cc1 — Ki (Plasminogen (PLG, Homo sapiens, UniProt P00747); enzyme activity, inhibitor, absorbance; pH 7.4): 50.5 µM
CCCC(CCC)C(=O)O — Racine score (mouse, pilocarpine-induced seizures; oral, 300 mg/kg, 120 min after pilocarpine; direction not given): 1.9 ± 0.57
O=C(CSc1nc2ccccc2cc1C=Nn1c(S)nnc1-c1ccccc1)NCCc1ccccc1 — IC50 (DPPH scavenging): 102 µM

Excerpt of the above:
N=C(N)c1ccc(CNC(=O)CCOCCOCCOCCOCCNC(=O)CN(CC(=O)NCCOCCOCCOCCOCCC(=O)NCc2ccc(C(=N)N)cc2)CC(=O)NCCOCCOCCOCCOCCC(=O)NCc2ccc(C(=N)N)cc2)cc1 — Ki (Plasminogen (PLG, Homo sapiens, UniProt P00747); enzyme activity, inhibitor, absorbance; pH 7.4): 50.5 µM
